# Measured values of several laboratories.
# Numbered parts are unrelated; each lists some results of a single study. Changes are numbered by the printed parent chain.

# Series 1
# Substance: PhoQ, residues 284 288 289 292 302 303 NLSRDF
# Method: Sort-seq
# Item: YFP reporter
# Matrix: E. coli
# Setting: PhoQ-PhoP variant library
# Together with: 10 µM Mg2+
# Relative to: high Mg2+ state
# Direction: higher = stronger signaling
target,fold induction
"PhoP, residues 12 14 15 18 19 VHTVL (Escherichia coli, UniProt P23836)",22.3
"PhoP, residues 12 14 15 18 19 ICWRQ (Escherichia coli, UniProt P23836)",1.9
"PhoP, residues 12 14 15 18 19 TQCLL (Escherichia coli, UniProt P23836)",2.76

# Series 2
# Target: RNA binding protein fox-1 homolog 2, RRM domain, GST-SBP tag (RBFOX2, Homo sapiens, UniProt O43251-10, residues 100-194)
# Method: RNA Bind-n-Seq
# Form: RNA
# Matrix: in vitro
# Tested at: 365 nM
# Setting: natural RNA segment, single round, ends assumed
# Relative to: no-protein control
# Direction: higher = stronger binding
# Shared flanks, not repeated: GGGAGUUCUACAGUCCGACGAUC … UGGAAUUCUCGGGUGCCAA
# Residues (chain): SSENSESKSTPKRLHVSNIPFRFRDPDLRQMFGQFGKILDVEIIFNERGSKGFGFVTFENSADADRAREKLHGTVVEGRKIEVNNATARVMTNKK
Sequence,RBNS enrichment (R)
UAGACUGAGAUCUGGGACUGUGUUGGGACCAUUCAGGUGAUAUGUCACUUCCACAAAUGGCAUCUCCAAGUAAGCUGUCACCUGGUACACAUGGAGGUGGAGCCUGCAGC,0.746
AUGGGACCCUCUGGAGUCCAGCCAUCCCAGGCUGUCUGCUUUCCAGGGGUUGUAUCUUCCUUCUUACCUGUUCAUCAACCAGCCCUCUCAUUGCUGCUGCAAGUCUGGCU,0.245
UUUUAAAUAGAAUACGGUUUUAAUUUUUGAUAAGCUGCUGAAUUUUAAAGAGAGUUUUUUGGGGCCACCAAAUAUUUUGGAUCAUGCAGAGAAUAUAUAUUGUACUGUAG,0.529
GGGAAAAUGCCACAGUGUUCUCCUGAGAGAACAUCCUUGCUUUGAGUCAGGCUGUGGGCAAGUUCCUGACCACAGGGAGUAAAUUGGCCUCUUUGAUACACUUUUGCUUG,0.89
UUAUCCACUGCCUUAAAAUUAUACCUAUUUCAUGUUUAAAAAGAUAUCAAUCAGAAUUGGAGUUUUUAACAGUGGUCAUUAUCAAAGCUGUGUUAUUUUCCACAGAAUAU,0.384
CCGGCGGGAGCCCCCGAAUGCUGCACCCAGCCACCCAGCAGAGCCCGUUCAUGGUUGAUCUCCACGAGCAGGUGCACCAGGGACCUGUCCCUCUGUCCUACACGGUCACC,0.37
UAUCGUUUUUAAUUUUAAUCAUAGUGCACAUAUUCAAAGAAAGUAUCUUUAAACACAAAAAACCCUGAAAUGUAUAUUUGGAUCGUUUUAAGGCAAUUGAAGACACGCAA,0.605
ACCAUGAAAGUGUUACUCAGAAUUGUCAUAGAUUUUCUCUUCUUUGUGCAAAAACAUGGAAAAUUGUCACUGACUUUGUUUUGAGGUUUCCCCCAUUUUGCUGCCUUUUG,0.422

# Series 3
# Target: CCNE2, cyclin fold, Cln2 fusion (human)
# Method: yeast growth competition, sequencing
# Matrix: yeast
# Setting: strong parent motif
# Relative to: not given
# Direction: higher = stronger binding
# Parent: PKN2 docking peptide (human); VSAVRKLDFSDTM; partner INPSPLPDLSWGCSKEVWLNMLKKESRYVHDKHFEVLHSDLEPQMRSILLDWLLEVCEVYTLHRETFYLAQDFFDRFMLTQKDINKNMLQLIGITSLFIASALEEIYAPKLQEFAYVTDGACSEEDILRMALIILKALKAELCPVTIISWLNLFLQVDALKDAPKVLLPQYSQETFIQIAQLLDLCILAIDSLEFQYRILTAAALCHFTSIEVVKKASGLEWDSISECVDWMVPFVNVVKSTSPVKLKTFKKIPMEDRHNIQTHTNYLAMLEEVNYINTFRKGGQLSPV
Change,normalised enrichment score
VSAVRKLDFHDTM [S10H],3.52
VSAVRKLDNSDTM [F9N],0.316
VSAVRKLDFFDTM [S10F],3.05
VSAVRKCDFSDTM [L7C],0.0138
VSAVRKIDFSDTM [L7I],2.77
VSAVRPLDFSDTM [K6P],-0.371
VLAVRKLDFSDTM [S2L],3.4
VSAVRKLCFSDTM [D8C],3.89
VSAWRKLDFSDTM [V4W],0.761
VSAKRKLDFSDTM [V4K],4.6
VFAVRKLDFSDTM [S2F],3.01
VSAVRKLDFPDTM [S10P],3.69
VSAVGKLDFSDTM [R5G],-0.344
VSAVPKLDFSDTM [R5P],0.0996
VSIVRKLDFSDTM [A3I],3.42
VSAVRKLDFSDGM [T12G],4.14
VSPVRKLDFSDTM [A3P],1.28
VSAIRKLDFSDTM [V4I],3.42
VSAVRKLDFSDSM [T12S],4.86
VSARRKLDFSDTM [V4R],5.19
VSAVRKLDFSSTM [D11S],5.19

# Series 4
# Target: ABI1, truncated, D143A, DHFR fusion (Arabidopsis thaliana)
# Method: DHFR PCA, deep sequencing
# Matrix: yeast
# Setting: methotrexate growth selection, single substitutions
# Together with: (+)-ABA 0.39 µM
# Relative to: wild-type fitted maximum
# Direction: higher = stronger binding
# Parent: PYL1, truncated, DHFR fusion (Arabidopsis thaliana); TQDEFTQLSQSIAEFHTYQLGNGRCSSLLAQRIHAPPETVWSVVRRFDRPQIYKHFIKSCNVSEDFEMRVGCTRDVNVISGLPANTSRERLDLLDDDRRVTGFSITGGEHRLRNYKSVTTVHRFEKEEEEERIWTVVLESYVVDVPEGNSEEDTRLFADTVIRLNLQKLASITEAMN; partner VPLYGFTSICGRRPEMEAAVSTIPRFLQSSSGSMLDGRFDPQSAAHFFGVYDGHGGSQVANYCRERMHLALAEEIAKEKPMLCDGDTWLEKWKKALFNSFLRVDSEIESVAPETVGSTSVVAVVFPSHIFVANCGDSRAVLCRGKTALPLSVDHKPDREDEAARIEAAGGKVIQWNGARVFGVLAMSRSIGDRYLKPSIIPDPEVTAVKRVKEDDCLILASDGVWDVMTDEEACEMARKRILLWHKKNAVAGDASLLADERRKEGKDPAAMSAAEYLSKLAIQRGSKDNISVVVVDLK
Change,relative binding score [%]
G81K,-3.31
V43N,-12
V121F,-6.72
R132W,8.44
F47S,7.85
L82Y,41.7
L156P,3.92
R123T,42.3
P146T,19.6
W41H,-11.5
I33R,-0.97
V136Y,3.64
W134S,59.6

# Repeated from above (series 3):
Change,normalised enrichment score
VSARRKLDFSDTM [V4R],5.19
VSAVRKLDFSSTM [D11S],5.19
VSAVRKLDFSDSM [T12S],4.86
